Measurements pooled from the literature.

SMILES	organism	test	system	setting	MIC
CN[C@@H]1[C@H](O)[C@H](NC)[C@H]2O[C@]3(O)[C@H](O[C@@H]2[C@H]1O)O[C@H](C)C[C@@]3(O)CNCCc1ccc(F)cc1	Mycobacteroides abscessus		ATCC 19977 ∆whiB7	120 h	1 to 2 µg/mL
CCCCc1ccc(-c2nc(C)c(C(C)=NNC(=N)N)s2)cc1	Staphylococcus aureus		NRS1 VISA		1.3 µg/mL
CO[C@H]1/C=C/O[C@@]2(C)Oc3c(C)c(O)c4c(c3C2=O)C2=NC3(CCN(CC(C)C)CC3)NC2=C(NC(=O)/C(C)=C\C=C\[C@H](C)[C@H](O)[C@@H](C)[C@@H](O)[C@@H](C)[C@H](OC(=O)c2cccc(F)c2)[C@@H]1C)C4=O	Mycobacteroides abscessus		ATCC 19977 arr deletion	90% growth inhibition	0.09 µM
CN1C(=O)[C@@H]2NC(=O)[C@@H]3NC(=O)[C@@H](c4ccc(O)cc4)NC(=O)[C@H](NC(=O)C(N)c4ccc(O)cc4)Cc4c[nH]c5cc(ccc45)-c4cc3cc(c4O)Oc3ccc(cc3)C[C@H]1C(=O)N[C@@H](C(=O)NCCCN)c1ccc(O)c(c1)Oc1ccc2cc1 (stereo partly shown)	Enterococcus faecium		brain heart infusion medium		1 to 2 µg/mL
CCCCCCCCCCCCCC(=O)N[C@H](CCN)C(=O)N[C@@H]1C(=O)N[C@@H](CCN)C(=O)N[C@@H](CC(C)C)C(=O)N[C@@H](CCN)C(=O)N[C@H](Cc2ccccc2)C(=O)N[C@@H](CC(C)C)C(=O)N[C@@H](CCN)C(=O)N[C@H](Cc2ccc(O)cc2)C(=O)N[C@@H](C(C)C)C(=O)N[C@@H](CC(=O)O)C(=O)O[C@@H]1C	Enterobacter cloacae	broth microdilution	BNCC 185028		4 µg/mL
CN(C)CCCNC(=O)[C@@H]1NC(=O)[C@@H]2Cc3ccc(cc3)Oc3cc4cc(c3O)-c3ccc5c(c[nH]c5c3)C[C@@H](NC(=O)C(NC(=O)CCCCCN)c3ccc(O)cc3)C(=O)N[C@H](c3ccc(O)cc3)C(=O)N[C@H]4C(=O)N[C@@H](C(=O)N2C)c2ccc(cc2)Oc2cc1ccc2O (stereo partly shown)	Enterococcus faecium		WCC 0533, VRE-A		0.5 to 1 µg/mL
C[N+]1=C2C(c3ccc([N+](=O)[O-])cc3)=[N+]([O-])c3ccccc3N2CCC1	Parvimonas micra		ATCC 3870		≤ 0.06 µg/mL
CNC(CC(C)C)C(=O)NC1C(=O)NC(CC(N)=O)C(=O)NC2C(=O)NC3C(=O)NC(C(=O)NC(C(=O)O)c4cc(O)cc(O)c4-c4cc3ccc4O)C(O)c3ccc(c(Cl)c3)Oc3cc2cc(c3OC2OC(CO)C(O)C(O)C2OC2CC(C)(NCc3ccc(-c4ccc(Cl)cc4)cc3)C(O)C(C)O2)Oc2ccc(cc2Cl)C1O (stereo not shown)	Enterococcus faecium		ATCC BAA-2317 VanA	added: +LTA 100 µg/mL	5 µg/mL
[O-][N+]1=C(c2ccc(Cl)cc2)C2=NCCCCN2c2ccccc21	Parvimonas micra		ATCC 3870		0.25 µg/mL
CCCCCCCCCCCCCCCCSCC1OC(OC2C(N)CC(N)C(OC3OC(CN)C(O)CC3N)C2O)C(O)C(N)C1O (stereo not shown)	Shigella		clinical isolate		37.5 µg/mL

Some of these lines once more:
SMILES	organism	test	system	setting	MIC
CCCCc1ccc(-c2nc(C)c(C(C)=NNC(=N)N)s2)cc1	Staphylococcus aureus		NRS1 VISA		1.3 µg/mL
